Published values gathered from unrelated publications.
Compare with care: the assays were run in different laboratories. ± gives the spread as reported.

SMILES	system	setting	tissue uptake
N=C(N)NCCC[C@@H]1NC(=O)[C@H](CCCCNC(=O)CC[C@H](NC(=O)CCOCCOCCOCCOCCNC(=O)CC[C@H](NC(=O)CN2CCN(CC(=O)O)CCN(CC(=O)O)CCN(CC(=O)O)CC2)C(=O)NCCOCCOCCOCCOCCC(=O)N[C@@H](CCC(=O)NCCCC[C@@H]2NC(=O)[C@@H](Cc3ccccc3)NC(=O)[C@H](CC(=O)O)NC(=O)CNC(=O)[C@H](CCCNC(=N)N)NC2=O)C(=O)NCCCC[C@@H]2NC(=O)[C@@H](Cc3ccccc3)NC(=O)[C@H](CC(=O)O)NC(=O)CNC(=O)[C@H](CCCNC(=N)N)NC2=O)C(=O)NCCCC[C@@H]2NC(=O)[C@@H](Cc3ccccc3)NC(=O)[C@H](CC(=O)O)NC(=O)CNC(=O)[C@H](CCCNC(=N)N)NC2=O)NC(=O)[C@@H](Cc2ccccc2)NC(=O)[C@H](CC(=O)O)NC(=O)CNC1=O [indium-111 labelled]	female athymic nude mice, brain	intravenous, 3 µCi, 24 h, U-87 MG glioma xenograft	0.05 ± 0.01 %ID/g
CCCC[C@H](NC(=O)COCCOCCNC(=O)c1ccc(NN)nc1)C(=O)N[C@H]1CC(=O)NCCCC[C@@H](C(N)=O)NC(=O)[C@H](Cc2c[nH]c3ccccc23)NC(=O)[C@H](CCCNC(=N)N)NC(=O)[C@@H](Cc2ccccc2)NC(=O)[C@H](Cc2c[nH]cn2)NC1=O [technetium-99m labelled]	C57 mouse, female, B16/F1 melanoma, kidneys	intravenous, 0.037 MBq, 2 h	5.79 ± 1.79 %ID/g
N=C(N)NCCC[C@@H]1NC(=O)[C@H](CCCCNC(=O)CNC(=O)CNC(=O)CNC(=O)CC[C@H](NC(=O)c2ccc(NN=Cc3ccccc3S(=O)(=O)O)nc2)C(=O)NCC(=O)NCC(=O)NCC(=O)NCCCC[C@@H]2NC(=O)[C@@H](Cc3ccccc3)NC(=O)[C@H](CC(=O)O)NC(=O)CNC(=O)[C@H](CCCNC(=N)N)NC2=O)NC(=O)[C@@H](Cc2ccccc2)NC(=O)[C@H](CC(=O)O)NC(=O)CNC1=O [technetium-99m labelled]	athymic nu/nu mouse, female, MDA-MB-435 xenograft, muscle	intravenous, 30 min	3.13 ± 1.04 %ID/g
C[C@@H](O)[C@H](NC(=O)[C@@H]1CSSC[C@H](NC(=O)[C@@H](Cc2ccccc2)NC(=O)CN2CCCN3CCN(CCCN(CP(=O)(O)O)CC3)CC2)C(=O)N[C@@H](Cc2ccc(O)cc2)C(=O)N[C@H](Cc2c[nH]c3ccccc23)C(=O)N[C@@H](CCCCN)C(=O)N[C@@H]([C@@H](C)O)C(=O)N1)C(=O)O [copper-64 labelled]	Lewis rat, male, tumour-bearing, adrenals	injection, 4 h	8.6 ± 0.2 %ID/g
N=C(N)NCCC[C@@H]1NC(=O)[C@H](CCCCNC(=O)CNC(=O)CNC(=O)CNC(=O)CC[C@H](NC(=O)CCOCCOCCOCCOCCNC(=O)CC[C@H](NC(=O)CN2CCN(CC(=O)O)CCN(CC(=O)O)CCN(CC(=O)O)CC2)C(=O)NCCOCCOCCOCCOCCC(=O)N[C@@H](CCC(=O)NCC(=O)NCC(=O)NCC(=O)NCCCC[C@@H]2NC(=O)[C@@H](Cc3ccccc3)NC(=O)[C@H](CC(=O)O)NC(=O)CNC(=O)[C@H](CCCNC(=N)N)NC2=O)C(=O)NCC(=O)NCC(=O)NCC(=O)NCCCC[C@@H]2NC(=O)[C@@H](Cc3ccccc3)NC(=O)[C@H](CC(=O)O)NC(=O)CNC(=O)[C@H](CCCNC(=N)N)NC2=O)C(=O)NCC(=O)NCC(=O)NCC(=O)NCCCC[C@@H]2NC(=O)[C@@H](Cc3ccccc3)NC(=O)[C@H](CC(=O)O)NC(=O)CNC(=O)[C@H](CCCNC(=N)N)NC2=O)NC(=O)[C@@H](Cc2ccccc2)NC(=O)[C@H](CC(=O)O)NC(=O)CNC1=O [indium-111 labelled]	female athymic nude mice, eyes	intravenous, 3 µCi, 24 h, U-87 MG glioma xenograft	0.31 ± 0.01 %ID/g
CSCC[C@H](NC(=O)[C@H](CC(C)C)NC(=O)[C@H](Cc1c[nH]cn1)NC(=O)CNC(=O)[C@@H](NC(=O)[C@H](C)NC(=O)[C@H](Cc1c[nH]c2ccccc12)NC(=O)[C@H](CCC(N)=O)NC(=O)CCCCCCCNC(=O)CCC(=O)Nc1ccc(CNC23CNCCNCC(N)(CNCCNC2)CNCCNC3)cc1)C(C)C)C(N)=O [copper-64 labelled]	female SCID mice, PC-3 xenograft, spleen	intravenous, 0.6 MBq, 1 h	1.23 ± 0.186 %ID/g
CCCC[C@H](NC(=O)CNC(=O)CNC(=O)c1ccc(NN)nc1)C(=O)N[C@H]1CC(=O)NCCCC[C@@H](C(N)=O)NC(=O)[C@H](Cc2c[nH]c3ccccc23)NC(=O)[C@H](CCCNC(=N)N)NC(=O)[C@@H](Cc2ccccc2)NC(=O)[C@H](Cc2c[nH]cn2)NC1=O [technetium-99m labelled]	C57 mouse, B16/F1 melanoma-bearing, stomach	intravenous, 0.5 h	2.23 ± 0.52 %ID/g
CSCC[C@H](NC(=O)[C@H](CC(C)C)NC(=O)[C@H](Cc1c[nH]cn1)NC(=O)CNC(=O)[C@@H](NC(=O)[C@H](C)NC(=O)[C@H](Cc1c[nH]c2ccccc12)NC(=O)[C@H](CCC(N)=O)NC(=O)CCCCCNC(=O)CNC(=O)CNC(=O)CNC(=O)CSC(C)=O)C(C)C)C(N)=O [technetium-99m labelled]	healthy Swiss mouse, small intestine, contents removed	intravenous, 18.5 MBq, 240 min	0.38 ± 0.11 %ID/g

A few entries again:
SMILES	system	setting	tissue uptake
C[C@@H](O)[C@H](NC(=O)[C@@H]1CSSC[C@H](NC(=O)[C@@H](Cc2ccccc2)NC(=O)CN2CCCN3CCN(CCCN(CP(=O)(O)O)CC3)CC2)C(=O)N[C@@H](Cc2ccc(O)cc2)C(=O)N[C@H](Cc2c[nH]c3ccccc23)C(=O)N[C@@H](CCCCN)C(=O)N[C@@H]([C@@H](C)O)C(=O)N1)C(=O)O [copper-64 labelled]	Lewis rat, male, tumour-bearing, adrenals	injection, 4 h	8.6 ± 0.2 %ID/g
